{"data": "Measurements gathered from unrelated publications", "note": "Numbered parts are unrelated; each lists some results of a single study. Positions count from the first letter of the parent shown."}
{"data": "Block 1", "target": "CREBRF, bZIP domain (human)", "technique": "DHFR protein complementation", "sample": "yeast", "setting": "single substitutions, most at no-binding floor", "relative to": "wild-type JUN-FOS pair", "direction": "higher = stronger binding", "starting sequence": "JUN, bZIP domain (human); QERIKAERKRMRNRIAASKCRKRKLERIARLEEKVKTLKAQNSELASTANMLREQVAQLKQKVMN; partner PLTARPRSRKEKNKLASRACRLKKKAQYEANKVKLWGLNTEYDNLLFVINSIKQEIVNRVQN"}
{"Change": "M51I", "binding fitness": "-1.52 natural log"}
{"Change": "M51H", "binding fitness": "-1.36 natural log"}
{"Change": "V56G", "binding fitness": "-1.48 natural log"}
{"Change": "N42Y", "binding fitness": "-1.58 natural log"}
{"Change": "T48F", "binding fitness": "-1.35 natural log"}
{"Change": "K36V", "binding fitness": "-1.31 natural log"}
{"Change": "R30Q", "binding fitness": "-1.3 natural log"}
{"Change": "A46W", "binding fitness": "-1.46 natural log"}
{"data": "Block 2", "target": "PABPC1L2, full length, GST fusion (mouse, UniProt A0ABA7IW68)", "technique": "RNAcompete", "molecule type": "RNA", "sample": "in vitro", "concentration": "20 nM", "setting": "7-mer, probes averaged, single round", "relative to": "mean of 7-mers", "direction": "higher = stronger binding", "Residues (chain)": "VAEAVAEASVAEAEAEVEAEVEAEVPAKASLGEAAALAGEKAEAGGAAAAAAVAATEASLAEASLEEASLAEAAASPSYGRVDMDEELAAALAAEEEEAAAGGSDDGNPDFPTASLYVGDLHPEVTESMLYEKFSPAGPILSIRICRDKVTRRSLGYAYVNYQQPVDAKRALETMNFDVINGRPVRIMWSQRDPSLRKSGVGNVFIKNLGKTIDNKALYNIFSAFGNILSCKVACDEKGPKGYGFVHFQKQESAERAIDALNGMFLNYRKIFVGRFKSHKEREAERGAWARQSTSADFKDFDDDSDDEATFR"}
{"Oligonucleotide": "CACAACA", "7-mer Z-score": 0.0388}
{"Oligonucleotide": "GCUAUAC", "7-mer Z-score": -0.0899}
{"Oligonucleotide": "GCUUAAG", "7-mer Z-score": -0.242}
{"Oligonucleotide": "GCCCCUA", "7-mer Z-score": -0.306}
{"Oligonucleotide": "GCCACGC", "7-mer Z-score": -0.132}
{"Oligonucleotide": "ACAAUUG", "7-mer Z-score": 0.0551}
{"Oligonucleotide": "CGAAUGA", "7-mer Z-score": -0.0156}
{"Oligonucleotide": "UUAUAUU", "7-mer Z-score": -0.238}
{"data": "Block 3", "target": "Ras GTPase-activating protein-binding protein 1, full length (G3BP1, Homo sapiens, UniProt Q13283)", "technique": "RNA Bind-n-Seq", "molecule type": "RNA", "sample": "in vitro", "concentration": "200 nM", "setting": "whole 134-nt RNA, ends assumed", "added": "150 mM KCl", "relative to": "input library", "direction": "higher = stronger binding", "UniProt Q13283, sequence (whole entry, looked up)": "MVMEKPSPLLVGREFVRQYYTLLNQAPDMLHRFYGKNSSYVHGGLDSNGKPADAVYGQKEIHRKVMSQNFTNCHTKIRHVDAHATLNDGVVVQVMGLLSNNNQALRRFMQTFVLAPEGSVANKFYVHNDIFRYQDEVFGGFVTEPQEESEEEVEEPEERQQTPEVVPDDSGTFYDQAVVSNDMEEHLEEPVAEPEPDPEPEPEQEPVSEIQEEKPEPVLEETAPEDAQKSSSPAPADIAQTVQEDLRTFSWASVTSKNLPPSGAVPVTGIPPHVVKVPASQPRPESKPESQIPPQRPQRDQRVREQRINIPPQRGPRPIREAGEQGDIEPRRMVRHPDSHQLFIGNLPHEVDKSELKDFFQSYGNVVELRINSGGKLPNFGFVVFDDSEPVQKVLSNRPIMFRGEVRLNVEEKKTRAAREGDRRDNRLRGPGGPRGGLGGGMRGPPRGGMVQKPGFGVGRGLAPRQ"}
{"Oligonucleotide": "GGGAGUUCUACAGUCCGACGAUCAGUCCUGUGCUACACAUCGUAUGUACCGAAUCGGGGAGGGGUUUUUGGGGAAAGGGGAAAGUAUUAUGUUACGCCGUUCGGAUCUGCACUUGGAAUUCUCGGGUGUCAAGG", "log2 enrichment": 0.443}
{"Oligonucleotide": "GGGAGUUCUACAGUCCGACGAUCCACAGACAACACGCACGCACACAGACACAGAGGGAAGGGGUUGGGAUGGGGACAGGGUGCACAGCAGGGCGGGGUAGGACCCCAGCCCCUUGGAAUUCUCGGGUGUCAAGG", "log2 enrichment": 1.01}
{"Oligonucleotide": "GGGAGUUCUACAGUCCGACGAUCUCAAGUCCUGUGCUACACAUCGUAUGUACCGAAUCGGGUGGGUUUUUGGGAGGGAAAGUAUUAUGUUACGCCGUUCGGAUCUGCACUUCCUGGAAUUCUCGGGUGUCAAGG", "log2 enrichment": 0.744}
{"Oligonucleotide": "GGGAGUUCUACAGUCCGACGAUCCAAGUCCUGUGCUACACAUCGUAUGUACCGAAUCGGUUUGGGUUUGGGGUUUGGGGAAAGUAUUAUGUUACGCCGUUCGGAUCUGCACUUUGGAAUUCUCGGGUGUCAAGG", "log2 enrichment": -0.321}
{"Oligonucleotide": "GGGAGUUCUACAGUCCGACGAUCUGGCCCUGGUGGCAUGCGGGGAGGAAGAGGUGGCCUCAUGGAUCGUGGUGGUCCCGGUGGAUUGUUCAGAGGUGGCCGUGGUGGAGACAGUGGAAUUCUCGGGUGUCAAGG", "log2 enrichment": 0.445}
{"Oligonucleotide": "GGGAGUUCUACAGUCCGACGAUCCUCAAGUCCUGUGCUACACAUCGUAUGUACCGAAUCGGUUUGGUUUUUGGUGGAAAGUAUUAUGUUACGCCGUUCGGAUCUGCACUUCCAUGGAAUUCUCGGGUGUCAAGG", "log2 enrichment": -0.419}
{"Oligonucleotide": "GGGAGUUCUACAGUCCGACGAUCCAAGUCCUGUGCUACACAUCGUAUGUACCGAAUCGGGUUUGGGAAAAAGGGAGGGAAAGUAUUAUGUUACGCCGUUCGGAUCUGCACUUCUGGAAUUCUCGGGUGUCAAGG", "log2 enrichment": 1.02}
{"Oligonucleotide": "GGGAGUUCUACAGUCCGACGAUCGUCCUGUGCUACACAUCGUAUGUACCGAAUCGGGUUUUUGGGUUUGGGAAAAAAAGGGAAAGUAUUAUGUUACGCCGUUCGGAUCUGCACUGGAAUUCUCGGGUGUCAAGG", "log2 enrichment": -0.72}
{"data": "Further values, each from its own experiment", "starting sequence": "PafA, mature enzyme, eGFP fusion (Elizabethkingia meningoseptica, UniProt Q9KJX5); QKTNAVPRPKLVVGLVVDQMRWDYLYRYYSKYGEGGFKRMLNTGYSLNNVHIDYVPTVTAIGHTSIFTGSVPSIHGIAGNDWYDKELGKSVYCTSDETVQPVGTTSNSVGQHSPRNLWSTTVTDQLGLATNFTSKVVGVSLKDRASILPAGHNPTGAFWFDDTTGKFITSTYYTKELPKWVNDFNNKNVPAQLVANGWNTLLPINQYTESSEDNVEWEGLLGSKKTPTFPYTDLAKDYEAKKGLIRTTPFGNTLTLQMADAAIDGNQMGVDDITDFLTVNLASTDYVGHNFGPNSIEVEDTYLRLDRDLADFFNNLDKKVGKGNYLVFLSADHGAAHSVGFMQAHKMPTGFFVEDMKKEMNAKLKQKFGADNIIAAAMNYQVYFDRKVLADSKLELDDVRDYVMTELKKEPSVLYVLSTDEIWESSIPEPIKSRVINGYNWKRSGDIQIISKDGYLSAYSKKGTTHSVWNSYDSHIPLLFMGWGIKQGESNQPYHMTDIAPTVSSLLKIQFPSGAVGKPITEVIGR"}
{"Change": "E239V", "target": "vanadate, free oxyanion", "test": "microfluidic competitive inhibition", "test system": "in vitro, cell-free expressed", "conditions": "not given, derived from inhibition constants, unchanged parent 676 nM", "scale": "lower = stronger binding", "measurement": "oxyanion analog dissociation constant", "result": "534 nM"}
